Published values from different studies.
Each numbered part is a random draw from the data of one study; scales do not carry over between parts.

Block 1
Target: Ras GTPase-activating protein-binding protein 1, C-terminal RGG region (G3BP1, Homo sapiens, UniProt Q13283)
UniProt Q13283, sequence (whole entry, looked up): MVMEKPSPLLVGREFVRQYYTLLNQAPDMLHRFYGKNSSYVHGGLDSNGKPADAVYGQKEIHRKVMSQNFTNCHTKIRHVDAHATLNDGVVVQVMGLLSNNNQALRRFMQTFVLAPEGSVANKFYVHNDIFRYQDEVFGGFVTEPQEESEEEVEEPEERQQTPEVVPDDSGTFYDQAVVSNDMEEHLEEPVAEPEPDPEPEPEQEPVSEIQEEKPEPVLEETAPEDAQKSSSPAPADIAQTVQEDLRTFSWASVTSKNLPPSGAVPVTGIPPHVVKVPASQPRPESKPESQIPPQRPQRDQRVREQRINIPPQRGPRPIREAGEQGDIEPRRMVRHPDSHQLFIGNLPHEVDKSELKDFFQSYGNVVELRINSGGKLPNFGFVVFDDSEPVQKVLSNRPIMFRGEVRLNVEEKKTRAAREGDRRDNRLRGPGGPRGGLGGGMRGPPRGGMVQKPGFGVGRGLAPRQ
Technique: RNA Bind-n-Seq
Molecule type: RNA
Matrix: in vitro
Concentration: 1 µM
Notes: whole 134-nt RNA, ends assumed
With: 150 mM KCl
Relative to: input library
Reading: higher = stronger binding
The log2 enrichment of `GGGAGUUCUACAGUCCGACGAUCCACAGACAACACGCACCCACACAGACACAGAGGGAAGGGGAAAGGAUGGGGACAGGGUGCACAGCAGGGCGGGGUAGGACCCCAGCCCCUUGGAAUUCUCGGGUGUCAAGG` is reported as -0.296.
The log2 enrichment of `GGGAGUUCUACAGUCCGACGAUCUAACUUUAGAGGAGGAUCUGAUGGAUAUGGCAGUGGACGUGGAUUUGGGGAUGGCUAUAAUGGGUAUGGAGGAGGACUUGGAGGUGGCAAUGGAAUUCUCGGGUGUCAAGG` is reported as -0.225.
The log2 enrichment of `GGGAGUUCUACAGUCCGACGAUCCACAGACAACACGCACCCGCACAGACACAGAGGGAAGGGGUUGGGAUGGGGACAGGGUGCACAGCAGGGCGGGGUAGGACCCCAGCCCCUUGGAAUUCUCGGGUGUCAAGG` is reported as -0.347.
`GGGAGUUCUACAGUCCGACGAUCACCAUGCAGGUGGGCAUCUUUGGGAAGUGGGGCAAGGGGGGGAUAGGGAGGGGGAAAACACUUUGGGAACAGGUGGUCCCAGGUCGUUUCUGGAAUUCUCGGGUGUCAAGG` gave a log2 enrichment of -1.
The log2 enrichment of `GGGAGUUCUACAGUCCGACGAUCGCAGGAAGUAAAAACAAAUGGAAAUGCUUCGGAUAGUGGCAGGGGUGGGAGUUGCUAAGGAAAGGGUGGGAUGGGAGUGGGUAAAGAGUUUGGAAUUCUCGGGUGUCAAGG` is reported as 2.54.
With `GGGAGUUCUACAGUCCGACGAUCAAGUCCUGUGCUACACAUCGUAUGUACCGAAUCGGGGUUUGGGGAAAGGGGUGGGGAAAGUAUUAUGUUACGCCGUUCGGAUCUGCACUUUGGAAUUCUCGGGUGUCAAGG` the log2 enrichment was 2.7.
`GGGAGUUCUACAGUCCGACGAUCCACAGACAACACGCACCCACACAGACACAGAGGGAAGGGGUUGGGAUGGGGACAGGGUGCACAGCAGGGCGGGGUAGGACUCCAGCCCCUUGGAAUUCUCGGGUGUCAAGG` gave a log2 enrichment of -0.785.
`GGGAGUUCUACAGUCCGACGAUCUCAAGUCCUGUGCUACACAUCGUAUGUACCGAAUCGGGAGGGAAAGGGUUUGGGAAAGUAUUAUGUUACGCCGUUCGGAUCUGCACUUCCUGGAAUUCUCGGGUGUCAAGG` has a log2 enrichment of 1.91.
With `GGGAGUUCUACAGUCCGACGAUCUGGCCCUGGUGGCAUGCGGGGAGGAAGAGGUGGCCUCAUGGAUCGUGGUGGUCCCGGUGGAAUGUUCAGAGGUGGCCGUGGAGGAGACAGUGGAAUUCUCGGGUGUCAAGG` the log2 enrichment was 3.44.
The log2 enrichment of `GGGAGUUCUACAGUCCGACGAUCGUCCUGUGCUACACAUCGUAUGUACCGAAUCGGGAAAAAAGGAAAAAAGGAAAAAAGGAAAGUAUUAUGUUACGCCGUUCGGAUCUGCACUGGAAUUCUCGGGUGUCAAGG` is reported as -1.53.

Block 2
Target: Histone acetyltransferase KAT6A, winged helix 1, GST fusion (KAT6A, Homo sapiens, UniProt Q92794, residues 1-85)
Technique: protein binding microarray
Molecule type: double-stranded DNA, one strand shown
Matrix: in vitro
Concentration: not given
Notes: 8-mer, flanks averaged, mean of 2 arrays, mostly near background
Relative to: not given
Reading: higher = stronger binding
Construct (chain): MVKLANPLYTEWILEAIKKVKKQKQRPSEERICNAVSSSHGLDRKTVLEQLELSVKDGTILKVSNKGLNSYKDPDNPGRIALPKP
`TAGTACTA` has an E-score of -0.247.
With `GAGTGCGA` the E-score was 0.0446.
For `AAGTAGGG`, the E-score was -0.209.
With `AGCACAAG` the E-score was -0.257.
`ATAGAGCC` has an E-score of -0.00407.
`CCATCTTC` gave an E-score of -0.177.
For `ACGGCGCA`, the E-score was 0.42.
For `AGATTGAT`, the E-score was 0.0192.
`ACTTCCTA` has an E-score of -0.147.
For `AGCCGTCG`, the E-score was 0.443.
`ACTACTCG` has an E-score of 0.0147.
With `GTAGGATA` the E-score was -0.0817.
With `ATTCCGCG` the E-score was 0.326.
The E-score of `GAGCTGCC` is reported as 0.116.
The E-score of `GACTAGGA` is reported as -0.165.
The E-score of `GCCGGAGC` is reported as 0.335.
`GACCACCC` has an E-score of -0.0807.
For `AGCCAGGC`, the E-score was -0.0981.
`ACGGGTCT` has an E-score of 0.242.
`ACTATGCG` has an E-score of 0.219.

Block 3
Target: Sal-like protein 4, full length isoform B (SALL4, Homo sapiens, UniProt Q9UJQ4-2, residues 1-616)
Technique: universal PBM
Molecule type: double-stranded DNA, one strand shown
Matrix: in vitro
Concentration: not given
Notes: 8-mer, flanks averaged, mean of replicates
Reading: higher = stronger binding
Construct (chain): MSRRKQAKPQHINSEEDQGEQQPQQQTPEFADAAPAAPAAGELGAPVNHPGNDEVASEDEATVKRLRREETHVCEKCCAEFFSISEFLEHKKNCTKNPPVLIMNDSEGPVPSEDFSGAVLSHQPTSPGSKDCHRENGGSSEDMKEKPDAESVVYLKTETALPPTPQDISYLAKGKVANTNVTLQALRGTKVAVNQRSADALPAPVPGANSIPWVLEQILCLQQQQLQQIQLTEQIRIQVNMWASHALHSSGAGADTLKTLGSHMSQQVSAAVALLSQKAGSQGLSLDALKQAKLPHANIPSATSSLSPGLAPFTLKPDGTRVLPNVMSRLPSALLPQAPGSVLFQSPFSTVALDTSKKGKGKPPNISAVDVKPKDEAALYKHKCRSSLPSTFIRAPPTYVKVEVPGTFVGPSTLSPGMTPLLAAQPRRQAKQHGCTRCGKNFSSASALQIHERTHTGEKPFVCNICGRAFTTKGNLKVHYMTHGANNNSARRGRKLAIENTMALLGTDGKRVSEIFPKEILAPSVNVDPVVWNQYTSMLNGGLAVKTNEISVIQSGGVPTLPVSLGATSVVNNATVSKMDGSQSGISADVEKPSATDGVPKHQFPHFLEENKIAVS
For `AGCTTGGA`, the E-score was -0.263.
For `AAAACGTC`, the E-score was 0.139.
With `CTTCCAAC` the E-score was -0.178.
The E-score of `AATCATCC` is reported as 0.0052.
With `TGAGGCAA` the E-score was -0.00354.
`AGAGGGAG` gave an E-score of -0.168.
`AGATGGCT` gave an E-score of 0.0486.
`TTAGGGAA` gave an E-score of 0.149.
`ATTGATGG` has an E-score of 0.269.
The E-score of `AAGGTAAG` is reported as 0.0966.
For `CTGCTACC`, the E-score was -0.0264.
With `GCGCCGTA` the E-score was -0.184.
`GTTTCTAA` gave an E-score of 0.114.
With `GAATCGCC` the E-score was -0.228.
`ACTAGTTA` gave an E-score of 0.245.
With `ATAATCAG` the E-score was 0.271.
For `CCATACGG`, the E-score was -0.149.
With `AACAAGCG` the E-score was 0.0747.
`ATTTCGCC` gave an E-score of 0.0457.
`ATTTTACA` gave an E-score of 0.334.
`ACTCCTGA` gave an E-score of -0.0347.
The E-score of `GCGGTGTA` is reported as -0.0701.

Block 4
Target: RNA binding protein fox-1 homolog 2, RRM domain, GST-SBP tag (RBFOX2, Homo sapiens, UniProt O43251-10, residues 100-194)
Technique: RNA Bind-n-Seq
Molecule type: RNA
Matrix: in vitro
Concentration: 365 nM
Notes: natural RNA segment, single round, ends assumed
Relative to: no-protein control
Reading: higher = stronger binding
Target sequence (chain): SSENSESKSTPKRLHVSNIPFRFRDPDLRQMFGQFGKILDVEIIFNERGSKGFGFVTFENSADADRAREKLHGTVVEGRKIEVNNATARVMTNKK
`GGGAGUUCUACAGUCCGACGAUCGGCCUGAGAAUCCAGCUCACCUCCUCUGCCCACAGUCUGGACUGCUUGUGGGAAGGCCAUCUCCUCCUGUCUGGUGGUACCUCCACUCUGGGCAGGGAGGGCCUGUCUGUUGGAAUUCUCGGGUGCCAA` — result for “RBNS enrichment (R)”: 0.413.
For `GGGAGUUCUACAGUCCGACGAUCUGUCUAGUGGAAGAUGAAUGGACAUGAUCAGUGACACCCCUGCUUGGUUUCUGGCGCUUUCAGAGACGUCUGAGGUUCUUUGCACAGAGACUCCUCAGAUGUGGGAACUCUGGAAUUCUCGGGUGCCAA`, “RBNS enrichment (R)” read 0.586.
`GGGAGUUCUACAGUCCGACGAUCUCAACAUGUUCAUCAACAUGCGUGCACAUAGACAUGAAUGCACGCCCUUCUUUCAAGGCAGAUUGAUAGGUCUUUAGAACAAACAUUUCACAGGGAUCAUUCUCUUCUCUUGGAAUUCUCGGGUGCCAA`: “RBNS enrichment (R)” 0.303.
For `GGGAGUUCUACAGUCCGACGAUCUUUUAGCAUGUGCUUUUAUAAAAAGUGGUAGCUACAGAUGAUAUAGCAAUCUACCUUAUAUAGAGCCUUCAGAAACUGUGAGUGGAAAUGAAUGCGCAGCGUAUGACUGUUGGAAUUCUCGGGUGCCAA`, “RBNS enrichment (R)” read 1.13.
Under “RBNS enrichment (R)”, `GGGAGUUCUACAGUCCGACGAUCUGUCUCGUGGGGUGGCAUCGGGGCUGCGGGGUGGGGACCCCAAGGCUUUCUGGGGCAGACCCUUGUCCUCUGGGAUGAUGGGCACUGCUAUCCACAGUCUCUGCCAGUUGUGGAAUUCUCGGGUGCCAA` is recorded as 0.295.
Under “RBNS enrichment (R)”, `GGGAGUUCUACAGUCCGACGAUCUCUGGUGGGUGCUUCCUUCCUCUGCUGCCUAACUGAGUCUGGCACAGGCUUUCUGCCUUGCCAUGAGGAGGAGGUGUAGACUUGUGAGUGCUCUCUCCGCUCUGAGUGGCUGGAAUUCUCGGGUGCCAA` is recorded as 0.261.
`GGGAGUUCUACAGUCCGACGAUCUCAGAUUUUAACAGCUGUUACUGUUAUUGGAGAUCGGAGAGUUGGCCUGUUAGAAAUUAAAAAAUACAGUACAGCUUGCCGUUCCUCUGGUUUGUGAAGUUUCACUCGUUUGGAAUUCUCGGGUGCCAA`: “RBNS enrichment (R)” 0.342.
Under “RBNS enrichment (R)”, `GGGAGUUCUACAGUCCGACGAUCGGUGCGAGGGAAGCAAUUGAAAAGGAACUUGCCCUGAGCACUCCUGGUGCAGGUCUCCACCUGCACAUUGGGUGGGGCUCCUGGGAGGGAGACUCAGCCUUCCUCCUCAUUGGAAUUCUCGGGUGCCAA` is recorded as 0.326.
`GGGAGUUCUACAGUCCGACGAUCGGUCCUCUCUUCCACAGUGGCGGGCCCACUCAGCCCCGAGACCACCCAACCUCACCCUCCUGACCCCCAUGUAAAUAUUGUUCUGCUGUCUGGGACUCCUGUCUAGGUGCUGGAAUUCUCGGGUGCCAA`: “RBNS enrichment (R)” 0.527.
For `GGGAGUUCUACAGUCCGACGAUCCUAAAAUGCCCAUGUUUACCUGUAUUGACCAAAGCUUUCAGUUGUUCUUCAUUCUGUGCUCAGGAUUGAAAUGCUGCGUAGACGUUGUGUUGUUAGUGCUGGGCACGGAUUGGAAUUCUCGGGUGCCAA`, “RBNS enrichment (R)” read 0.414.
For `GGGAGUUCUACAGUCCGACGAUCUAGGGUUUUUUGUCCAGUGGGUUUCAAAUUUGUUGGCUGUUUAAAGACCCUGUCUCCUCCCCCACCCUCCCCUUCCUUUUCCCAUCAAAUGCCUACCUACUGAGGCGCCUUGGAAUUCUCGGGUGCCAA`, “RBNS enrichment (R)” read 0.765.
`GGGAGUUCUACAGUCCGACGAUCGUUUAAAUUUCCCUUAUAUUUCCACCUGUAAUGUCAGUGGCAACAACAUCAUACUUCACUUACUUGUUAAUUUACUUUUUACCCUUAUUCUAAGAGCAAGUUGAGUUGAAUGGAAUUCUCGGGUGCCAA` — result for “RBNS enrichment (R)”: 0.723.

Block 5
Organism: Saccharomyces cerevisiae
Effect on: binding
Technique: competitive growth deep sequencing
Molecule type: peptide
Strain: cyclin E1-Cln2 fusion strain
Concentration: concentration not given
Notes: peptide tiling library
Reading: direction not given
For `LKGRRLVFDN`, “growth enrichment score” read -0.0241.
`SPPRGRRLFPPGPAGF`: “growth enrichment score” 0.432.
For `NEGVSNAVRRSLYIRD`, “growth enrichment score” read 0.0299.
`KVKRRLDLDIDGLQKE` — result for “growth enrichment score”: 1.94.
Under “growth enrichment score”, `SMTDFYHSKRRLIFSK` is recorded as -0.364.
`NSMKELNFSHLPSNSV` — result for “growth enrichment score”: 0.0478.
`TTTTSPRTPPPLTVQD`: “growth enrichment score” -0.135.
`DSGFCLDSPGPLDSKE` — result for “growth enrichment score”: -0.139.
`RQVRRDLFAF` — result for “growth enrichment score”: -0.0559.
For `KRRLDLETDHQY`, “growth enrichment score” read 0.855.
Under “growth enrichment score”, `PFSENVSAVQKLDFSD` is recorded as 1.06.
Under “growth enrichment score”, `KSKHEEEEWTDDDLVE` is recorded as 0.0305.
`GFGFLLFICKLTF` — result for “growth enrichment score”: 0.523.
For `RRRIKLPESDSSED`, “growth enrichment score” read 0.49.
`RVSGLLSWTLSRVLWL`: “growth enrichment score” 0.574.
